Measurements gathered from unrelated publications.
Compare with care: the assays were run in different laboratories.
Organism: Pseudomonas aeruginosa

With `CC[C@H]1OC(=O)[C@H](C)[C@@H](OC(=O)Cc2cccc3ccccc23)[C@H](C)[C@@H](O[C@@H]2O[C@H](C)C[C@H](N(C)C)[C@H]2O)[C@](C)(OC)C[C@@H](C)C(=O)[C@H](C)[C@@H](O)[C@]1(C)O` the MIC was > 32 µg/mL (microbial growth; ATCC27853).
For `COc1ccc2ccc(O)c(/C=N/[C@H]3CCCC[C@H]3/N=C/c3c(C)cccc3O)c2c1`, the MIC was > 40 µM (microbial growth, broth dilution; clinical isolate).
`N=C(N)NCCC[C@@H]1NC(=O)[C@H](CCCNC(=N)N)NC(=O)[C@@H](CCCNC(=N)N)NC(=O)[C@H](C(c2ccccc2)c2ccccc2)NC(=O)[C@H](C(c2ccccc2)c2ccccc2)NC(=O)[C@H](C(c2ccccc2)c2ccccc2)NC(=O)[C@H](CCCNC(=N)N)NC1=O` gave an MIC of 32 µg/mL (ATCC 27853).
With `CC[C@H]1OC(=O)[C@H](C)[C@@H](OC(=O)Cc2ccccc2Cl)[C@H](C)[C@@H](O[C@@H]2O[C@H](C)C[C@H](N(C)C)[C@H]2O)[C@](C)(OC)C[C@@H](C)C(=O)[C@H](C)[C@@H](O)[C@]1(C)O` the MIC was > 32 µg/mL (microbial growth; ATCC27853).
The MIC of `COc1cccc(OC)c1C(=O)N[C@@H]1C(=O)N2[C@@H]1SC(C)(C)[C@@H]2C(=O)O` is reported as > 128 µM (microbial growth, broth dilution; PAO1).
`CC(C)C[C@@H]1NC(=O)[C@@H](CC(C)C)NC(=O)[C@H](CCN)NC(=O)[C@@H](NC(=O)[C@H](CCN)NC(=O)[C@@H](NC(=O)CCCCN=[N+]=[N-])[C@@H](C)O)CCNC(=O)[C@H]([C@@H](C)O)NC(=O)[C@H](CCN)NC(=O)[C@H](CCN)NC1=O` has an MIC of 4 µg/mL (broth microdilution; ATCC 10145, cation-adjusted Mueller-Hinton broth; 18 to 20 h, 37 °C, 0.002% polysorbate 80).
For `CCCC(=O)Oc1c(C)c(OC)c2c(c1C)OC(=O)[C@@H](CC)[C@]2(O)/C=C/c1ccccc1` (racemic), the MIC was 5000 µg/mL (microbial growth, broth dilution; ATCC27853).
With `CC(C)C[C@@H]1NC(=O)[C@@H](CC(C)C)NC(=O)[C@H](CCN)NC(=O)[C@@H](NC(=O)[C@H](CCN)NC(=O)[C@@H](N)[C@@H](C)O)CCNC(=O)[C@H]([C@@H](C)O)NC(=O)[C@H](CCN)NC(=O)[C@H](CCN)NC1=O` the MIC was > 138 µM (broth microdilution; ATCC 27853, cation-adjusted Mueller-Hinton broth).
With `CC1(C)[C@H](NC(=O)/C(=N\OCc2cc(=O)c(O)cn2O)c2csc(N)n2)C(=O)N1OS(=O)(=O)O` the MIC was 2 µg/mL (microbial growth, agar dilution; ATCC27).
For `CC[C@H]1OC(=O)[C@H](C)[C@@H](OC(=O)Cc2ccccc2[N+](=O)[O-])[C@H](C)[C@@H](O[C@@H]2O[C@H](C)C[C@H](N(C)C)[C@H]2O)[C@](C)(OC)C[C@@H](C)C(=O)[C@H](C)[C@@H](O)[C@]1(C)O`, the MIC was 32 µg/mL (PAO397, five efflux pumps deleted).
For `CC1(C)[C@H](NC(=O)/C(=N\OCc2c(Cl)cccc2Cl)c2nsc(N)n2)C(=O)N1OS(=O)(=O)O`, the MIC was > 64 µg/mL (agar dilution; PAO1).
`COc1c(NC(=O)c2ccc(NC(=O)c3ccc(NC(=O)[C@H](Cc4c[nH]nn4)NC(=O)c4ccc(NC(=O)/C(C)=C/c5ccc(O)cc5)cc4)cc3)cc2)ccc(C(=O)O)c1O` gave an MIC of 32 µg/mL (broth microdilution; ciprofloxacin-resistant).
`CC[C@H]1OC(=O)[C@H](C)[C@@H](O[C@H]2C[C@@](C)(OC)[C@@H](O)[C@H](C)O2)[C@H](C)[C@@H](O[C@@H]2O[C@H](C)C[C@H](N(C)C)[C@H]2O)[C@](C)(O)C[C@@H](C)C(=O)[C@H](C)[C@@H](O)[C@]1(C)O` has an MIC of 128 µg/mL (microbial growth, broth dilution; PAO1).
For `CCCC(=O)Oc1c(C)c(OC)c2c(/C=C/c3ccccc3)c(CC)c(=O)oc2c1C`, the MIC was 5000 µg/mL (microbial growth, broth dilution; ATCC27853).
The MIC of `C=CCO/N=C(\C(=O)N[C@@H]1C(=O)N(S(=O)(=O)O)[C@H]1C)c1csc(N)n1` is reported as 32 µg/mL (microbial growth, agar dilution; ATCC27).
`COc1ccc2ccc(O)c(/C=N/[C@H]3CCCC[C@H]3/N=C/c3c(O)cccc3OC)c2c1` has an MIC of > 40 µM (microbial growth, broth dilution).
For `COc1cc(C(=O)Nc2ccc(C(=O)O)c(O)c2OC)ccc1NC(=O)c1ccc(NC(=O)[C@H](Cc2c[nH]nn2)NC(=O)c2ccc(NC(=O)/C(C)=C/c3ccc(O)cc3)cc2)cc1`, the MIC was 32 µg/mL (broth microdilution; ciprofloxacin-resistant).
With `CC[C@H]1OC(=O)[C@H](C)[C@@H](O[C@H]2C[C@@](C)(OC)[C@@H](O)[C@H](C)O2)[C@H](C)[C@@H](O[C@@H]2O[C@H](C)C[C@H](N(C)C)[C@H]2O)[C@](C)(O)C[C@@H](C)CN(C)[C@H](C)[C@@H](O)[C@]1(C)O` the MIC was 32 µg/mL (microbial growth, broth dilution; PAO1).
The MIC of `COc1ccc2ccc(O)c(/C=N/[C@H]3CCCC[C@H]3/N=C/c3ccc(C)cc3O)c2c1` is reported as > 40 µM (microbial growth, broth dilution; clinical isolate).
`CCOc1c(NC(=O)c2ccc(NC(=O)c3ccc(NC(=O)[C@H](Cc4c[nH]nn4)NC(=O)c4ccc(NC(=O)/C(C)=C/c5ccc(O)cc5)cc4)cc3)c(OCC)c2O)ccc(C(=O)O)c1O` gave an MIC of 2 µg/mL (broth microdilution; ciprofloxacin-resistant).
With `CCCCCCCC[N+](C)(C)CCCCCCCCCCOc1cc(OCCCCCCCCCC[N+](C)(C)CCCCCCCC)cc(OCCCCCCCCCC[N+](C)(C)CCCCCCCC)c1.[Br-].[Br-].[Br-]` the MIC was 32 µM (PAO1).
`CCCCCCCCCCCCCCCCCCn1cc(CN(CCC(=O)NCCN(CCC(=O)NCCN(CCC(=O)NCCN(C)C)CCC(=O)NCCN(C)C)CCC(=O)NCCN(CCC(=O)NCCN(C)C)CCC(=O)NCCN(C)C)CCC(=O)NCCN(CCC(=O)NCCN(CCC(=O)NCCN(C)C)CCC(=O)NCCN(C)C)CCC(=O)NCCN(CCC(=O)NCCN(C)C)CCC(=O)NCCN(C)C)nn1` gave an MIC of > 96 µg/mL (microbial growth, broth dilution; PAO1; 18 h).
The MIC of `CCCCCCCC[N+](C)(C)CCCCCCOc1cc(OCCCCCC[N+](C)(C)CCCCCCCC)cc(OCCCCCC[N+](C)(C)CCCCCCCC)c1.[Br-].[Br-].[Br-]` is reported as 2 µM (PAO1).
For `CC1(C)C(NC(=O)C(=NOCC(=O)N2CC3CCCC3C2C(=O)O)c2csc(N)n2)C(=O)N1OS(=O)(=O)O` (stereo not drawn), the MIC was > 64 µg/mL (agar dilution; ATCC 27853).

For quick reference, copied from above:
With `CC1(C)[C@H](NC(=O)/C(=N\OCc2cc(=O)c(O)cn2O)c2csc(N)n2)C(=O)N1OS(=O)(=O)O` the MIC was 2 µg/mL (microbial growth, agar dilution; ATCC27).
With `CC(C)C[C@@H]1NC(=O)[C@@H](CC(C)C)NC(=O)[C@H](CCN)NC(=O)[C@@H](NC(=O)[C@H](CCN)NC(=O)[C@@H](N)[C@@H](C)O)CCNC(=O)[C@H]([C@@H](C)O)NC(=O)[C@H](CCN)NC(=O)[C@H](CCN)NC1=O` the MIC was > 138 µM (broth microdilution; ATCC 27853, cation-adjusted Mueller-Hinton broth).
The MIC of `C=CCO/N=C(\C(=O)N[C@@H]1C(=O)N(S(=O)(=O)O)[C@H]1C)c1csc(N)n1` is reported as 32 µg/mL (microbial growth, agar dilution; ATCC27).
